Measured values pooled from the literature.
Compare with care: the assays were run in different laboratories. Numbers after ± are the reported error.
Target: Mu-type opioid receptor (Oprm1, Rattus norvegicus, UniProt P33535)
Sequence of UniProt P33535 (whole entry, looked up): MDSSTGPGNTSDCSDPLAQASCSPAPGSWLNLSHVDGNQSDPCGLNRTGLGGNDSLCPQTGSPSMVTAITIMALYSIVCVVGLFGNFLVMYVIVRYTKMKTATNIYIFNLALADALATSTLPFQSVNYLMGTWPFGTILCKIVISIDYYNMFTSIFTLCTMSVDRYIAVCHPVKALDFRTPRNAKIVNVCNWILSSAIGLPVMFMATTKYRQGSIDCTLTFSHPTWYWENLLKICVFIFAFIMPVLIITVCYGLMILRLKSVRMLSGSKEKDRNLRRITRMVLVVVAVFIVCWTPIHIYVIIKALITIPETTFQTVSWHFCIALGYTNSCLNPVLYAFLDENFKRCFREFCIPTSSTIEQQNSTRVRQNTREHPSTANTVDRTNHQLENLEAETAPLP

SMILES | assay | system | setting | quantity | result
Cc1cc(O)cc(C)c1CC(N)C(=O)NC1CCNc2c(C(=O)Nc3ccccc3)cc(Cc3ccccc3)cc21 (stereo not shown) | GTPγS binding, agonist, radiometric | – | cell membranes | EC50 | 1.2 nM
Cc1cc(O)cc(C)c1CC(N)C(=O)NC1CCNc2ccc(CN3CCOCC3)cc21 (stereo not shown) | GTPγS binding, agonist, radiometric | – | cell membranes | EC50 | 60 nM
Cc1cc(O)cc(C)c1CC(N)C(=O)NC1CCNc2c(C)cc(Cc3ccccc3)cc21 (stereo not shown) | GTPγS binding, agonist, radiometric | – | cell membranes | EC50 | 4.2 nM
Cc1cc(O)cc(C)c1CC(N)C(=O)NC1CCNc2ccc(Cc3ccc4ncccc4c3)cc21 (stereo not shown) | GTPγS binding, agonist, radiometric | – | cell membranes | EC50 | 23 nM
Cc1cc(O)cc(C)c1CC(N)C(=O)NC1CCNc2c1cc(Cc1ccccc1)cc2C(F)(F)F (stereo not shown) | GTPγS binding, agonist, radiometric | – | cell membranes | EC50 | 1.8 nM
CCCC[C@@H]1NC(=O)[C@H](Cc2ccccc2)NC(=O)CNC(=O)[C@H](NC(=O)[C@@H](N)Cc2ccc(O)cc2)C(C)(C)SSC(C)(C)[C@H](C(=O)N[C@@H](Cc2c[nH]c3ccccc23)C(=O)NCc2cc(C(F)(F)F)cc(C(F)(F)F)c2)NC(=O)[C@@H]2CCCN2C1=O | – | – | – | IC50 | 2040 nM
CCNC(=O)c1cc(Cc2ccccc2)cc2c1NCCC2NC(=O)C(N)Cc1c(C)cc(O)cc1C (stereo not shown) | GTPγS binding, agonist, radiometric | – | cell membranes | EC50 | 2.1 nM
CC(=O)N(C)[C@@H](Cc1ccccc1)C(=O)N[C@@H](Cc1ccccc1)C(=O)N[C@@H](CC1CCCCC1)C(=O)N[C@@H](CCCNC(=N)N)C(=O)N[C@@H](CC(C)C)C(=O)N[C@@H](CCCNC(=N)N)C(=O)N[C@@H](CCCNC(=N)N)C(=O)N[C@H](C)C(=O)N[C@@H](CCCNC(=N)N)C(=O)N1CCC[C@H]1C(=O)N[C@@H](CCCCN)C(N)=O | ligand displacement, radioligand | – | – | Ki | 5930 nM
CC(C)C[C@H](NC(=O)[C@H](Cc1cccc2ccccc12)NC(=O)CNC(=O)[C@H](NC(=O)[C@@H](N)Cc1ccc(O)cc1)[C@H](C)O)C(=O)N[C@@H](CO)C(N)=O | GTPγS binding, agonist, radiometric | – | cell membranes | EC50 | 31 nM
Cc1cc(O)cc(C)c1C[C@H](N)C(=O)N1Cc2ccccc2C[C@H]1CN[C@@H](Cc1ccccc1)C(=O)N[C@@H](Cc1ccccc1)C(N)=O | cAMP inhibition, agonist | C6 expressing target | with: forskolin | IC50 | 5.1 ± 3.8 nM
Cc1cc(O)cc(C)c1CC(N)C(=O)NC1CCNc2ccc(Cc3ccoc3)cc21 (stereo not shown) | GTPγS binding, agonist, radiometric | – | cell membranes | EC50 | 72 nM
CC[C@H](C)[C@H](NC(=O)[C@@H](N)Cc1ccc(O)cc1)C(=O)N[C@@H](Cc1ccccc1)C(=O)N[C@@H](CC(N)=O)C(=O)N[C@@H](CC(C)C)C(=O)O | binding | rat brain membranes | with: [3H]DAMGO | IC50 | 181 ± 2.3e-06 nM
CCCC[C@H](NC(=O)[C@H](Cc1ccccc1)NC(=O)CNC(=O)[C@@H](C)NC(=O)[C@@H](N)Cc1ccc(O)cc1)C(=O)N1CCC[C@H]1C(=O)N[C@@H](CC(C)C)C(=O)N[C@@H](CO[C@@H]1O[C@H](CO)[C@@H](O)[C@H](O)[C@H]1O)C(=O)N[C@@H](Cc1c[nH]c2ccccc12)C(=O)NCc1cc(C(F)(F)F)cc(C(F)(F)F)c1 | ligand displacement, radioligand | – | – | IC50 | 60.3 nM

A few entries again:
SMILES | assay | system | setting | quantity | result
CCCC[C@@H]1NC(=O)[C@H](Cc2ccccc2)NC(=O)CNC(=O)[C@H](NC(=O)[C@@H](N)Cc2ccc(O)cc2)C(C)(C)SSC(C)(C)[C@H](C(=O)N[C@@H](Cc2c[nH]c3ccccc23)C(=O)NCc2cc(C(F)(F)F)cc(C(F)(F)F)c2)NC(=O)[C@@H]2CCCN2C1=O | – | – | – | IC50 | 2040 nM
